Measured values of several laboratories.
A part holds a random share of what one study measured.

Sample 1
Target: Prothrombin, mature alpha-thrombin (F2, Homo sapiens, UniProt P00734)
Technique: aptamer microarray, sandwich
Molecule type: DNA with 2'F-ANA
Matrix: in vitro
Tested at: 200 nM
Setting: whole 15-mer aptamer, many near background
Added: Cy3 exosite-II aptamer, 400 nM
Reading: higher = stronger binding
Measurement: mean fluorescence intensity
Sequence: GGTTGGTGTGGTTGG
2'F-ANA at 2 3 4 5 6 8 11 12 14 15: 58.7 a.u.
2'F-ANA at 2 3 5 9 12 13 14 15: 55.1 a.u.
2'F-ANA at 1 2 3 5 6 8 11 13 14: 69.2 a.u.
2'F-ANA at 1 2 3 4 6 8 13 14: 58.7 a.u.
2'F-ANA at 1 3 6 7 9 13 15: 162 a.u.
2'F-ANA at 8 9 12 13: 696 a.u.
2'F-ANA at 1 5 6 7 8 9 11 13 14 15: 50.9 a.u.
2'F-ANA at 1 4 6 7 9 11 12 13 14: 58.2 a.u.

Sample 2
Target: RNA binding protein fox-1 homolog 2, RRM domain, GST-SBP tag (RBFOX2, Homo sapiens, UniProt O43251-10, residues 100-194)
Technique: RNA Bind-n-Seq
Molecule type: RNA
Matrix: in vitro
Tested at: 365 nM
Setting: natural RNA segment, single round, ends assumed
Baseline: no-protein control
Reading: higher = stronger binding
Measurement: RBNS enrichment (R)
Residues (chain): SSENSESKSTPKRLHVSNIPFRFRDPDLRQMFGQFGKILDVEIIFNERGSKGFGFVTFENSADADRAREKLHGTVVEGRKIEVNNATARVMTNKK
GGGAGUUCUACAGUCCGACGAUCCUCAUGGGGCGGCUCAUGAGGAGCUGGGGGCAGGGUAGAAUGGGACCGAGCAGGAACAGAGGCUGCAGUUGGGCUGGCUGACUGAGGGUGCCUGGCUGCCCAGCCUGCGGUGGAAUUCUCGGGUGCCAA: 0.819
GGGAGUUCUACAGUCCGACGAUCGCCAAUUGUUUUGCAGUACUUUAUUAUAUUGGGUGUCUUGUCUUUUUUGGGCUUUUAGUUAGCUAAUGAAUGAAUACAUUAGACACUUUUGGGUUUUAGUUGGGAUUUUAUGGAAUUCUCGGGUGCCAA: 0.604
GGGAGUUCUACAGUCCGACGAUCUUUGUCCUCUUGUCUUAGAGUUGUGUGUAAAUCAAGGAAGCCAUCAUUAAAUUGUUUUAUUUCUCUCCUUUCUGGUUUUUAAGAGAUUUAGGGAACUAGGAAUUUUUCACUGGAAUUCUCGGGUGCCAA: 0.654
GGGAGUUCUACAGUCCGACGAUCUUUACUGGUCCCAGCUUUUAGGUUCUUUAAGACACUAACAGGACUACAUAGAGGCUUUUUCAGCAUUACUGUGUCGUCUCCGUGCCAGAUGUGGCAAGAUCACCAUUAGCUGGAAUUCUCGGGUGCCAA: 0.397
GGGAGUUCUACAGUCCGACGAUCCAUUUCCGUGUUCUAUUCCAGAGUGUUCUCUUCUCCCAGAGAACACUGGAACGUCCUCACAGGGAUGAAGGAAUUCUUUCUUUCCCACAGGAAAGGUGCUACUGUGUGGGUGGAAUUCUCGGGUGCCAA: 0.316

Sample 3
Target: Histone acetyltransferase KAT6A, both winged helices, GST fusion (KAT6A, Homo sapiens, UniProt Q92794, residues 1-181)
Technique: protein binding microarray
Molecule type: double-stranded DNA, one strand shown
Matrix: in vitro
Tested at: not given
Setting: 8-mer, flanks averaged, mean of 2 arrays, mostly near background
Baseline: not given
Reading: higher = stronger binding
Measurement: E-score
Target sequence (chain): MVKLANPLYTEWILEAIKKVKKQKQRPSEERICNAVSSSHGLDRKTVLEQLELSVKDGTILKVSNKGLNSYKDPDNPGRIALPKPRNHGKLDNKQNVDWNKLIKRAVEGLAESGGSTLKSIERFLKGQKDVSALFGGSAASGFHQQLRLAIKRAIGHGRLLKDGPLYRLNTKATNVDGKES
CTCAACAG: -0.0581
TCGATAAA: 0.173
ACACAGCG: 0.292
CTCCCGAA: -0.134
CGTACTCC: 0.0456

Mixed results
PhoQ, residues 284 288 289 292 302 303 SCEHLI
fold induction (PhoP, residues 12 14 15 18 19 LHHVQ (Escherichia coli, UniProt P23836); Sort-seq, refers to: YFP reporter; E. coli; PhoQ-PhoP variant library, added: 10 µM Mg2+; baseline: high Mg2+ state, higher = stronger signaling): 16.5

Repeated from above (mixed results):
PhoQ, residues 284 288 289 292 302 303 SCEHLI
fold induction (PhoP, residues 12 14 15 18 19 LHHVQ (Escherichia coli, UniProt P23836); Sort-seq, refers to: YFP reporter; E. coli; PhoQ-PhoP variant library, added: 10 µM Mg2+; baseline: high Mg2+ state, higher = stronger signaling): 16.5
